Results collected from several papers.
Compare with care: the assays were run in different laboratories. “And” joins repeats or separate records; there may be more than shown. ± marks the error that the study gave. ≈ marks a conversion by molar mass, not a printed value.

Cc1nc2cccc(OCC(C)(C)C(=O)NC(C)C)c2c(N)c1C(=O)O  Cmax (Sprague-Dawley rat both sexes, plasma; dietary, 60 mg/kg/day, day 90): 97 ng/mL
COC(=O)Nc1nc2ccc(Sc3ccccc3)cc2[nH]1  thermodynamic solubility (shake-flask; Captex 355; 37 °C): 0.19 mg/g
N=C(N)NC(=O)c1cnn(-c2cccc3ncccc23)c1C1CC1  CLint (Sprague-Dawley rat male, hepatic S9; 1 µM, pH 7.4, added: without NADPH): 357 ± 25.1 mL/min/kg
CNc1nc(Nc2ccc(-n3cnc(C)n3)c(OC)c2)nc2c1CC[C@H]2c1ccc(F)cc1  AUC(0-inf) (human, plasma; oral, 10 mg, single dose, healthy volunteers): 153 ng·h/mL
COc1ccc2c(c1)c(CC(=O)O)c(C)n2C(=O)c1ccc(Cl)cc1  thermodynamic solubility (shake-flask; polysorbate 80; 37 °C): 116 ± 8.33 mg/g
Oc1ccc(C=Cc2cc(O)cc(O)c2)cc1  CYP1B1 mRNA level (RT-PCR; ApcMin/+ mice; dose not given, added: benzo[a]pyrene; baseline: untreated): 3 fold
Cn1c(-c2ccc(C(N)=O)cc2F)nnc1C(C)(C)Oc1c(F)cc(Cl)cc1F  half-life range over subjects (young Japanese adults, plasma; oral, 20 mg single dose, day 1, high-dose multiple-dose study): 12 to 25.5 h
des-acyl ghrelin (human)  tissue/serum ratio (wild-type mice, whole brain; intravenous, dose not given, 10 min, vascular space corrected): 8.67 µL/g
C[C@]12CC[C@@H]3c4ccc(O)cc4CC[C@H]3[C@@H]1C[C@@H](O)[C@@H]2O  minimum serum concentration (GC-MS; breast cancer women on NSAI, serum; vaginal, 0.03 mg daily, 3 h, day 28): 0 ng/mL
CN[C@H](CC(C)C)C(=O)N[C@H]1C(=O)N[C@@H](CC(N)=O)C(=O)N[C@H]2C(=O)N[C@H]3C(=O)N[C@H](C(=O)N[C@H](C(=O)O)c4cc(O)cc(O)c4-c4cc3ccc4O)[C@H](O)c3ccc(c(Cl)c3)Oc3cc2cc(c3O[C@@H]2O[C@H](CO)[C@@H](O)[C@H](O)[C@H]2O[C@H]2C[C@](C)(N)[C@H](O)[C@H](C)O2)Oc2ccc(cc2Cl)[C@H]1O  time above MIC (pig, Danish Landrace, plasma; intravenous, 1000 mg over 100 min, 450 min dosing interval, added: 2.0 µg/mL MIC; baseline: dosing interval): 100%
Cc1cc(Nc2cc3ncccc3c(N[C@@H]3C[C@H]4CC[C@@H](C3)N4CCC#N)n2)n[nH]1  Cmax (pregnant rat, maternal plasma; oral, 30 mg/kg/day, gestation day 17): 2.75 ng/mL
Cc1nc(-c2ccc(OCC(C)C)c(C#N)c2)sc1C(=O)O  Vz/F at steady state (pediatric patients, plasma; oral, 40 mg once daily, fed, PopPK post hoc, weight at least 40 kg): 79.3 ± 22.8 L
CS/C(S)=N/CCCC[S+](C)[O-] (racemic)  mRNA fold change (RT-PCR, measured: Cyp2c7; rat, liver; oral gavage, 200 mg/kg, dosed for four days; baseline: vehicle): 0.774
CC(C)=CCc1c(O)c(CC=C(C)C)c2oc3c(O)cccc3c(=O)c2c1O  free tumour concentration (Balb/c nu/nu mice, HT-29 xenograft, tumour tissue; oral, 901 mg/kg xanthones in diet, 2 weeks after implantation): 220 ± 10 ng/g
C=CC(N)CCC(=O)O (stereo not drawn)  Tmax (median) (male Sprague-Dawley rat, plasma; oral, 1.0 mg/kg, formulation 5, added: Sar 200 mg/kg): 0.67 h
COc1cc(C)c(/C=C/C(C)=C/C=C/C(C)=C/C(=O)O)c(C)c1C  thermodynamic solubility (shake-flask; Captex 355; 37 °C): 0.24 ± 0.01 mg/g
C[C@](N)(Cc1ccc(O)c(O)c1)C(=O)O  solubility (supercritical carbon dioxide; 5 h, 313 K, 21 MPa, density 850.4 kg/m3): 185 µg/mL (≈ 875 µM)
CC(C)C[C@H](N)C(=O)N1CCC[C@@H](NCC(=O)N2CCC[C@H]2C(N)=O)C1  pKa2 (capillary electrophoresis-MS; water): 8.46
CN(C)C(=O)c1cc2cnc(Nc3ccc(N4CCS(=N)(=O)CC4)cn3)nc2n1C1CCCC1  thermodynamic solubility (shake flask; water; pH 6.5): 22 µg/mL (≈ 45.6 µM)
N[C@@H](CC(=O)N1CCn2c(nnc2C(F)(F)F)C1)Cc1cc(F)c(F)cc1F  AUC(0-2 h) (healthy Korean subjects, plasma; oral, 100 mg single dose, ABCB1 G2677T/A GA): 453 ± 169 ng·h/mL
Cc1cc(-c2cc(OC(=O)c3ccccc3)ccc2Cl)cc2nnc(Nc3ccc(OCCN4CCCC4)cc3)nc12  tissue concentration (Dutch Belted rabbit, retina; topical ocular, 40 µL drop of 0.6%, 2 h): 46 nM
RTRYED  peptide cleavage (substrate, gel electrophoresis; peptide, mouse, PyMT tumour, PyMT tumour tissue extract; 5 µM, 16 h, 37 °C, 2% extract, 1 mM ZnCl2): > 90% and > 80%
CCCC[C@H](NC(C)=O)C(=O)N[C@H]1CCC(=O)NC[C@@H](C(=O)N[C@@H](Cc2c[nH]c3ccccc23)C(N)=O)NC(=O)[C@H](CCCNC(=N)N)NC(=O)[C@@H](Cc2ccccc2)NC(=O)[C@H](Cc2c[nH]cn2)NC1=O  Vd/F (healthy human, both sexes, plasma; subcutaneous, 3.0 mg once daily, day 1, arithmetic mean): 257 L
O=C(O)[C@H](c1ccccc1Cl)N1CCc2sccc2C1  deviation from nominal (HPLC-MS/MS; feline citrate plasma; 72 h, -80 °C, storage stability): 7%
CS(=O)(=O)OC[C@H](O)[C@@H](O)COS(C)(=O)=O  concentration in red blood cells (Wistar rat, female, red blood cells; intraperitoneal, 500 mg/kg, 1 h): 158 µM and 204 µM and 741 µM
CCCSc1ccc2nc(NC(=O)OC)[nH]c2c1  thermodynamic solubility (sodium acetate buffer; 24 h, pH 4.0, room temperature): 0.91 ± 0.1 µg/mL (≈ 3.43 µM)
O=C(O)C[C@H](O)C[C@H](O)/C=C/c1c(C2CC2)nc2ccccc2c1-c1ccc(F)cc1  AUC(0-27 h) (male Sprague Dawley rat, control, plasma; oral, 2.5 mg/kg, geometric mean, added: vehicle): 3.1 µM·h
CCOc1ccc(Cc2cc([C@@H]3S[C@H](CO)[C@@H](O)[C@H](O)[C@H]3O)c(OC)cc2C)cc1  Vd/F (human; oral, 10 mg/day, day 1, before breakfast): 40.1 ± 8.36 L
COc1ccc2nc([S@@+]([O-])Cc3ncc(C)c(OC)c3C)[nH]c2c1  adverse events (human healthy; 40 mg, menstruation delayed): 0%
C[C@@H](Oc1ccc(S(C)(=O)=O)cc1C(=O)N1C[C@@H]2C[C@]2(c2cc(C(F)(F)F)on2)C1)C(F)(F)F  drug-related adverse events (healthy men; oral, dose not given, 14 days; baseline: subjects): 4%
CCCC[C@@H]1NC(=O)[C@@H](NC(=O)[C@H](CCC(=O)O)NC(=O)CNC(=O)CN2CCN(CC(=O)O)CCN(CC(=O)O)CCN(CC(=O)O)CC2)CCCCNC(=O)C[C@@H](C(N)=O)NC(=O)[C@H](C(C)C)NC(=O)[C@@H]2CCCN2C(=O)[C@H](CCCNC(=N)N)NC(=O)CNC(=O)[C@H](Cc2c[nH]c3ccccc23)NC(=O)[C@H](CCCNC(=N)N)NC(=O)[C@@H](Cc2ccccc2)NC(=O)[C@H](Cc2c[nH]cn2)NC(=O)[C@H](CCC(=O)O)NC1=O [indium-111 labelled]  tissue uptake (normal C57 mice, brain; intravenous, 0.037 MBq, 24 h): 0.01 ± 0.01 %ID/g
acyl ghrelin (human)  tissue/serum ratio (Ghsr knockout mice, pons and medulla; intravenous, dose not given, 10 min, vascular space corrected): 6.8 µL/g
CCCCN(CCCC)CCC(O)c1cc2c(Cl)cc(Cl)cc2c2cc(C(F)(F)F)ccc12 (stereo not drawn)  thermodynamic solubility (shake-flask; soybean oil; 37 °C): 52.8 ± 6.3 mg/g
CC(C)NC[C@@H](C(=O)N1CCN(c2ncnc3c2[C@H](C)C[C@H]3O)CC1)c1ccc(Cl)cc1  AUC(0-72 h) (human, Moderate hepatic function, plasma; oral, 100 mg single dose, NCI classification, geometric mean): 729 ng·h/mL
COc1cc([C@@H]2c3cc4c(cc3[C@@H](O[C@@H]3O[C@@H]5CO[C@@H](C)O[C@H]5[C@H](O)[C@H]3O)[C@H]3COC(=O)[C@H]23)OCO4)cc(OC)c1O  clearance (male Sprague-Dawley rat, plasma; intravenous, 5 mg/kg): 19.7 mL/min/kg
CCCOc1ccc([C@H]2CNC(=O)N2c2ccc3[nH]cnc3c2)cc1  AUC(0-inf) (human, plasma; oral, 100 mg, single dose, fasted): 692 ng·h/mL
Cc1c(Cl)cccc1Nc1ccccc1C(=O)O  thermodynamic solubility (shake-flask; Captex 355; 37 °C): 7.24 ± 0.54 mg/g
[2H]C([2H])([2H])Oc1cc2c(cc1OC([2H])([2H])[2H])C1CC(=O)C(CC(C)C)CN1CC2 (stereo not drawn)  dose-normalized AUC(0-inf) (measured: deuterated α-HTBZ; healthy human volunteers, plasma; oral, 18 mg single dose, standard meal): 16.4 ng·h/mL
CNCc1ccc(-c2[nH]c3cc(F)cc4c3c2CCNC4=O)cc1  AUC(0-t) (human, fasted, plasma; oral, 600 mg, 24 h, single dose, arithmetic mean): 10000 ng·h/mL
COc1cc(N)c(Cl)cc1C(=O)NC1CCN(CCCOc2ccc(F)cc2)CC1OC (stereo not drawn)  QTc change (male Hartley guinea pig, anaesthetized; intravenous infusion, 0.3 mg/kg, 10 min infusion; baseline: baseline): 6.6 ± 2.4%
COc1cc(F)c(F)c(Nc2ccc(I)cc2F)c1NS(=O)(=O)C1(C[C@H](O)CO)CC1  AUC(0-8 h) (human patients, plasma; oral, 30 mg twice daily, cycle 1 day 14): 3300 ng·h/mL
O=c1c(O)c(-c2ccccc2)oc2cc(O)cc(O)c12  Papp A→B (mass spectrometry; Caco-2; 40 µM, 6 h): 6.86 ×10⁻⁶ cm/s
C[C@H](CS)C(=O)N1CCC[C@H]1C(=O)O  QTc change (male Hartley guinea pig, anaesthetized; intravenous infusion, 30 mg/kg, 10 min infusion; baseline: baseline): -6 ± 1.9%
O=C(NC1CCNCC1)c1n[nH]cc1NC(=O)c1c(Cl)cccc1Cl  t_half (human patients, plasma; intravenous, cycle 1 day 1, after onalespib): 600 min
CC(C)[C@H](NC(=O)[C@@H]1CCCN1C(=O)[C@H](CCCNC(=N)N)NC(=O)[C@H](CS)NC(=O)[C@H](Cc1c[nH]c2ccccc12)NC(=O)[C@H](CCCNC(=N)N)NC(=O)[C@@H](Cc1ccccc1)NC(=O)[C@H](Cc1c[nH]cn1)NC(=O)[C@H](CCC(=O)O)NC(=O)[C@H](CS)NC(=O)[C@H](CS)NC(=O)[C@H](CCCCN)NC(=O)[C@@H]1CC(=O)N[C@@H](CCCNC(=N)N)C(=O)N[C@@H](C(C)C)C(=O)N[C@@H](CC(=O)O)C(=O)N[C@H](Cc2ccc(O)cc2)C(=O)N1)C(N)=O [technetium-99m labelled]  tissue uptake (C57 mouse, female, B16/F1 melanoma, skin; intravenous, 2 h, added: NDP-MSH 10 µg co-injected): 0.65 ± 0.1 %ID/g
O=C1N=C(N2CCOCC2)CN1c1ccc(Cl)cc1  apparent volume of distribution (Vz/F) (beagle dog, male; oral, 30 mg/kg, tablets, fasted): 0.68 L/kg
COc1cc(OC)c(/C=C/S(=O)(=O)Cc2ccc(OC)c(NCC(=O)O)c2)c(OC)c1  AUC(0-inf) (cancer patients, phase I, plasma; oral, 560 mg twice daily, day 21 cycle 1): 6990 ± 5880 ng·h/mL
OCCN(CCO)c1nc(N2CCCCC2)c2nc(N(CCO)CCO)nc(N3CCCCC3)c2n1  thermodynamic solubility (shake-flask; Captex 355; 37 °C): 0.14 ± 0.02 mg/g
CC(=O)Oc1ccc(/C=C\C(=O)Nc2ccc(S(=O)(=O)Nc3ncccn3)cc2)cc1OC(C)=O  log P (n-octanol/PBS; pH 7.4): > 0.5
CCCCCCCCC[C@H](O)CC(=O)CCc1ccc(O)c(OC)c1  recovery (rat, small intestine site 4 contents; oral, dose not given, 4 h, β-glucuronidase treated; baseline: ingested amount): 2.93%
CC(C)(C)NC(=O)[C@@H]1C[C@@H]2CCCC[C@@H]2CN1C[C@@H](O)[C@H](Cc1ccccc1)NC(=O)[C@H](CC(N)=O)NC(=O)c1ccc2ccccc2n1  thermodynamic solubility (shake-flask; PEG400; 37 °C): ≥ 300 mg/g
C=C[C@@H]1C[C@]1(NC(=O)[C@@H]1C[C@@H](Oc2ncc(OC)c3ccc(Cl)cc23)CN1C(=O)[C@@H](NC(=O)OC(C)(C)C)C(C)(C)C)C(=O)NS(=O)(=O)C1CC1  Papp A→B (Caco-2): 3.4 ×10⁻⁶ cm/s
C[C@H](Oc1ccc(-c2nc(-c3ccc4[nH]cnc4c3)no2)cc1C(F)(F)F)C(F)(F)F  plasma concentration (cynomolgus monkey, aneurysm model, plasma; 0.1 mg/kg once daily, 4 h post-dose, 4 weeks dosing): 0.024 ± 0.0055 µM
CC(C)(Oc1ccc(CCNC(=O)c2ccc(Cl)cc2)cc1)C(=O)O  thermodynamic solubility (shake-flask; PEG400; 37 °C): 36 ± 1.71 mg/g
